Published values gathered from unrelated publications.
Compare with care: the assays were run in different laboratories. ± marks the error that the study gave.

Compound = Cn1cc(-c2nc(N[C@@H]3CCCC[C@@H]3N)c(F)c3c2C(=O)NC3)cn1; assay = refers to: Subarachnoid haemorrhage; system = patients with relapsed or refractory AML; setting = oral, dose not given, all doses; endpoint = hemorrhagic adverse events; result = 2 number of patients
Compound = COc1ccc2c(c1)CN[C@@H](C(=O)N[C@H](CN1CC[C@@](C)(c3cccc(O)c3)[C@@H](C)C1)C(C)C)C2; system = Sprague-Dawley rat, plasma; setting = intraperitoneal, 5 mg/kg; endpoint = AUCtotal; result = 2170 ng·h/mL
Compound = CC(C)C[C@H](NC(=O)[C@H](CCCCN)NC(=O)OCC1c2ccccc2-c2ccccc21)C(=O)N[C@H](C(=O)N[C@@H](Cc1ccccc1)C(=O)N[C@@H](Cc1ccccc1)C(=O)N[C@@H](CCCCN)C(=O)NCC(=O)N[C@@H](Cc1ccccc1)C(=O)N[C@@H](C)C(=O)N[C@@H](Cc1c[nH]c2ccccc12)C(=O)N[C@@H](CC(N)=O)C(=O)N[C@H](C(=O)N[C@H]1CSSC[C@@H](C(=O)N[C@@H](Cc2c[nH]cn2)C(=O)N[C@@H](CCCNC(=N)N)C(=O)N[C@@H](CCCNC(=N)N)C(=O)N[C@@H](C)C(=O)N[C@@H](CC(N)=O)C(N)=O)NC(=O)[C@H](C(C)C)NC(=O)[C@H](CCCNC(=N)N)NC(=O)[C@H](C(C)C)NC(=O)CNC(=O)[C@H](CC(N)=O)NC(=O)[C@H](CCCNC(=N)N)NC(=O)[C@H](Cc2ccc(O)cc2)NC(=O)[C@H](C(C)C)NC1=O)C(C)C)C(C)C; system = ICR mouse, serum; setting = ip, 5 mg/kg, 3 d dosing, blood day 5; endpoint = total protein; result = 51.8 ± 1.07 g/L
Compound = COc1ccnc(C(=O)N[C@H]2COC(=O)[C@H](Cc3ccccc3)[C@@H](OC(=O)C(C)C)[C@H](C)OC2=O)c1OCOC(=O)C(C)C; system = water, aerobic water/sediment; setting = 20 °C, geometric mean; endpoint = DT50; result = 0.26 days
Compound = CC(=O)c1c(C)c2cnc(Nc3ccc(C4CCN(CCS(C)(=O)=O)CC4)cn3)nc2n(C2CCCC2)c1=O; system = human patients, plasma; setting = oral, 100 mg twice daily, day 21 multiple doses, with: fulvestrant; endpoint = Tmax; result = 1.88 h
Compound = CO[C@H]1C[C@@H]2CC[C@@H](C)[C@@](O)(O2)C(=O)C(=O)N2CCCC[C@H]2C(=O)O[C@H]([C@H](C)C[C@@H]2CC[C@@H](OC(=O)NCCOCCOCCOCCOCCOCCOCCOCCOCCC(=O)N3CCc4cc(Cn5nc(-c6ccc7oc(N)nc7c6)c6c(N)ncnc65)ccc4C3)[C@H](OC)C2)C[C@@H](O)[C@H](C)/C=C(\C)[C@@H](O)[C@@H](OC)C(=O)[C@H](C)C[C@H](C)/C=C/C=C/C=C/1C; assay = phase 1 dose escalation, refers to: decreased appetite; system = advanced solid tumour patients; setting = intravenous, 6 mg weekly, any grade; endpoint = TRAE incidence; result = 66.7%
Compound = COc1cc2c(Oc3ccc4[nH]c(C)cc4c3F)ccnc2cc1OCC1(N)CC1; system = sarcoma, recurrent or refractory, high-risk, paediatric; setting = dose not given; endpoint = dose-limiting toxicity incidence; result = 5.9%
Compound = CN1CCN(S(=O)(=O)c2cc([N+](=O)[O-])ccc2N(CCOS(C)(=O)=O)CCOS(C)(=O)=O)CC1; system = NSG mice, plasma; setting = intraperitoneal, 5 mg/kg, 2 h; endpoint = concentration; result = not detected
Compound = CCC[C@@](N)(CO)CCc1ccc(OCCCCCC(C)C)cc1; system = dog, male hounds, plasma; setting = oral capsule, 2.5 mg/kg, geometric mean; endpoint = AUC(0-t); result = 3 µM·h
Compound = Oc1ccc(CSCc2ccc(O)cc2)cc1; system = ICR mice male; setting = oral, 6000 mg/kg, day 15, acute toxicity; scale = baseline: day 1; endpoint = body weight gain; result = 7.68 ± 1.2 g
Compound = CC1(C)C(/C=C(\Cl)C(F)(F)F)C1C(=O)OC(C#N)c1cccc(Oc2ccccc2)c1 (stereo not drawn); assay = refers to: CYP3A4; system = human, age 1 year; endpoint = enzyme contribution to clearance; result = 1.01%
Compound = COc1ncccc1-c1cnn2ccc(N3CCN(C(=O)OC(C)C)CC3)nc12; system = mouse nerve ligation model, brain; setting = oral, 3 mg/kg, 120 min after last dose, repeat dosing day 5; endpoint = drug concentration; result = 1300 nM
